Measurements collected from several papers.
Each line is one published result; not all experiments were run side by side.

SMILES | test | system | conditions | measurement | result
O=C1Nc2cc3[nH]nc(-c4ccncc4)c3cc2CN1Cc1ccccc1 | CTCAE v4.03 | advanced solid tumour patients | intravenous, 3.6 mg/kg, schedules 1/2 | patients with decreased appetite | 67%
COc1c(OCCCN2CCOCC2)ccc2c1N=C(NC(=O)c1cnc(N)nc1)N1CCN=C21 | refers to: Fatigue | patients with advanced malignancies | intravenous, dose not given, any grade, all cohorts, together with: gemcitabine | patients with adverse event | 76%
CC(=O)c1c(C)c2cnc(Nc3ccc(C4CCN(CCS(C)(=O)=O)CC4)cn3)nc2n(C2CCCC2)c1=O | – | HR+/HER2- advanced breast cancer patients | oral, 100 mg bid, grade 3/4, monotherapy arm | patients with platelet count decreased | 0%
CO[C@H]1C[C@@H]2CC[C@@H](C)[C@@](O)(O2)C(=O)C(=O)N2CCCC[C@H]2C(=O)O[C@H]([C@H](C)C[C@@H]2CC[C@@H](OC(=O)NCCOCCOCCOCCOCCOCCOCCOCCOCCC(=O)N3CCc4cc(Cn5nc(-c6ccc7oc(N)nc7c6)c6c(N)ncnc65)ccc4C3)[C@H](OC)C2)C[C@@H](O)[C@H](C)/C=C(\C)[C@@H](O)[C@@H](OC)C(=O)[C@H](C)C[C@H](C)/C=C/C=C/C=C/1C | refers to: grade ≥3 treatment-related ALT increase | patients with advanced solid tumours | intravenous, dose not given, all patients, weekly | patients with AE | 4%
C=CCNc1c(O)cc2c(O)c1C[C@@H](C)C[C@H](OC)[C@H](O)[C@@H](C)/C=C(\C)[C@H](OC(N)=O)[C@@H](OC)/C=C\C=C(/C)C(=O)N2 | refers to: Nausea | unresectable or metastatic GIST/STS | intravenous, dose not given, all doses | patients with TEAE | 52%
CCN(CCO)CCCC(C)Nc1ccnc2cc(Cl)ccc12 (centres unmarked) | refers to: Anemia grade 1 | newly diagnosed glioblastoma patients | oral, 400 mg/dose, with radiotherapy and temozolomide | patients with adverse event | 33%
C[C@@H]1OC(=O)NN=C1c1ccc(-c2ccc(F)cc2)c(C(F)(F)F)c1 | – | patients, phase I trial | oral, 5 mg once daily, worst grade 1 | patients with muscle spasms | 0%
Cc1cc(OCCOCCC(F)(F)P(=O)(O)O)ccc1CCc1cnc2c(N)nc3cc(CCC(=O)O)ccc3c2c1 | refers to: chills | adults with advanced solid tumours | dose not given, all groups pooled, all grades | patients with non-serious AE | 11.1%
N[C@@H]1c2ccccc2OC12CCN(c1cnc3c(N4CCCc5ncccc54)n[nH]c3n1)CC2 | – | advanced solid tumour patients | oral, 40 mg once daily | patients with grade ≥3 TEAE | 25%
Nc1nc2cc(-c3ccc4ncc(C(=O)N5CCOCC5)n4c3)ccc2o1 | refers to: Hypokalemia, any cause, all grades | patients with advanced solid tumours | dose not given | patients with adverse events | 26%
CN1CC[C@@H](c2c(O)cc(O)c3c(=O)cc(-c4ccc(C(F)(F)F)cc4Cl)oc23)[C@@H]1CO | refers to: Pneumonia | relapsed or refractory haematological malignancies | oral, dose not given, grade 3 to 4, all arms | patients with adverse event | 5%

Some of these lines once more:
SMILES | test | system | conditions | measurement | result
N[C@@H]1c2ccccc2OC12CCN(c1cnc3c(N4CCCc5ncccc54)n[nH]c3n1)CC2 | – | advanced solid tumour patients | oral, 40 mg once daily | patients with grade ≥3 TEAE | 25%
